Assay results gathered from unrelated publications.
Lines come from different studies, so protocols differ. “And” joins repeats or separate records; there may be more than shown. ± gives the spread as reported.
HDAC1: Histone deacetylase 1 (HDAC1, Homo sapiens, UniProt Q13547)
Chain of UniProt Q13547 (whole entry, looked up): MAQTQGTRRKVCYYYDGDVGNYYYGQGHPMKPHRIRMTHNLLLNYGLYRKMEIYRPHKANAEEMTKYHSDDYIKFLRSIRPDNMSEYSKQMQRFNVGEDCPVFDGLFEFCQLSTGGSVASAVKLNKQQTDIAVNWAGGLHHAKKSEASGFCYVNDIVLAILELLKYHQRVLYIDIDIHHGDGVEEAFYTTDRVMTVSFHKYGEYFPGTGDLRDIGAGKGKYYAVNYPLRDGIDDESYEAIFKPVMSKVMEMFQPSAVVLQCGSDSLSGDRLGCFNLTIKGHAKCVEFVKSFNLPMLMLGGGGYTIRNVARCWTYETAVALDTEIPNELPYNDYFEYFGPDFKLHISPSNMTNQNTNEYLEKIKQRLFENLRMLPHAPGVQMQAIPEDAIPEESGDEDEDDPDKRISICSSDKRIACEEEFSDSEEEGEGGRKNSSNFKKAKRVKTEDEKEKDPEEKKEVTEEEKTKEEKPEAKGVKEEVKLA
Grin1: Glutamate receptor ionotropic, NMDA 1 (Grin1, Rattus norvegicus, UniProt P35439)
EIF2AK3: Eukaryotic translation initiation factor 2-alpha kinase 3 (EIF2AK3, Homo sapiens, UniProt Q9NZJ5)
Chain of UniProt Q9NZJ5 (whole entry, looked up): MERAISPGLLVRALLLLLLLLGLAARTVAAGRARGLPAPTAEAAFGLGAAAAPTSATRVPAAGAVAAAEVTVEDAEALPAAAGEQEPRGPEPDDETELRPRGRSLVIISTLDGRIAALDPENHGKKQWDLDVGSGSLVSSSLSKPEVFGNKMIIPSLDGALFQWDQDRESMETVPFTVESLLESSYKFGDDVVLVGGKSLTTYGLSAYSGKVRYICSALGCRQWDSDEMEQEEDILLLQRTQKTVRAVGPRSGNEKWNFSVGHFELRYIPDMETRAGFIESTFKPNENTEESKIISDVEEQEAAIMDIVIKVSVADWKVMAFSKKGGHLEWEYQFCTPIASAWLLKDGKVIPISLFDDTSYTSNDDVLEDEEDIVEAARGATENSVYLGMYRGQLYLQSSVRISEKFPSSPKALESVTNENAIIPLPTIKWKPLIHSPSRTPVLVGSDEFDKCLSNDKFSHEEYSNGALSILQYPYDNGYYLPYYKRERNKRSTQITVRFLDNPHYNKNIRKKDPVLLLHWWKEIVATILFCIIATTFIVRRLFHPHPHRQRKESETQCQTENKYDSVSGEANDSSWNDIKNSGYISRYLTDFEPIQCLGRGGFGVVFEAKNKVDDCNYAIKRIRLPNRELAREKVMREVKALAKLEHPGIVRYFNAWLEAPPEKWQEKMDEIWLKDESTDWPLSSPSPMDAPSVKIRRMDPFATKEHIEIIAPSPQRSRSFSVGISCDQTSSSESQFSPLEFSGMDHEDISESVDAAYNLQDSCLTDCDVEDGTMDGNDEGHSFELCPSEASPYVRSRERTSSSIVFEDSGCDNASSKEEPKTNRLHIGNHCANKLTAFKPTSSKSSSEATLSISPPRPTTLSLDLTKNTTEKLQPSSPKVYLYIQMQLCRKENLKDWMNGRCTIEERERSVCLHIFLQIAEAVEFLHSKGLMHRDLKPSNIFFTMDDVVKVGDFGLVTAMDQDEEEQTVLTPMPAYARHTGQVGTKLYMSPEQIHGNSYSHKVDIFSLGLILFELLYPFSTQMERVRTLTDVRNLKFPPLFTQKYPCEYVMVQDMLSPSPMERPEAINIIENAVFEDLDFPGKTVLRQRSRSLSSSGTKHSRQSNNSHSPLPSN
SIRT6: NAD-dependent protein deacylase sirtuin-6 (SIRT6, Homo sapiens, UniProt Q8N6T7)
Chain of UniProt Q8N6T7 (whole entry, looked up): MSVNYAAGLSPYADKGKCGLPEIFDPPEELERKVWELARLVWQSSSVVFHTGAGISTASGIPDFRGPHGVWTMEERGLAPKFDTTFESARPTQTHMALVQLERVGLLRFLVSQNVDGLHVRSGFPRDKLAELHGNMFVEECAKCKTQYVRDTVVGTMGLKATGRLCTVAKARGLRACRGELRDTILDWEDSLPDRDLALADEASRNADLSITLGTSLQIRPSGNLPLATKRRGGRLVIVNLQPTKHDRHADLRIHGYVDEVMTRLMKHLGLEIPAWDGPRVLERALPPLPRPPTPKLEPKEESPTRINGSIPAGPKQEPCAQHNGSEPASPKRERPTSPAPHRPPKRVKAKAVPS
CTSL: Procathepsin L (CTSL, Homo sapiens, UniProt P07711)
Chain of UniProt P07711 (whole entry, looked up): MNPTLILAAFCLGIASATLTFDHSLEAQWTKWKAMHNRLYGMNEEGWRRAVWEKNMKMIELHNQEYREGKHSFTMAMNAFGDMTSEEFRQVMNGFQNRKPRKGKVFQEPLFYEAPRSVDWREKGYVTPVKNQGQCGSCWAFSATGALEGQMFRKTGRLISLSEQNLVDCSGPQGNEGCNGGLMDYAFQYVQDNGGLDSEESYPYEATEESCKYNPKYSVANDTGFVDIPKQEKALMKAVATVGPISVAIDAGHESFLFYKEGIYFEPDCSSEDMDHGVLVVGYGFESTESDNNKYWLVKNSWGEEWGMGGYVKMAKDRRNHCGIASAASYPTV
Faah: Fatty-acid amide hydrolase 1 (Faah, Mus musculus, UniProt O08914)
Chain of UniProt Q93009 (whole entry, unmodified, looked up): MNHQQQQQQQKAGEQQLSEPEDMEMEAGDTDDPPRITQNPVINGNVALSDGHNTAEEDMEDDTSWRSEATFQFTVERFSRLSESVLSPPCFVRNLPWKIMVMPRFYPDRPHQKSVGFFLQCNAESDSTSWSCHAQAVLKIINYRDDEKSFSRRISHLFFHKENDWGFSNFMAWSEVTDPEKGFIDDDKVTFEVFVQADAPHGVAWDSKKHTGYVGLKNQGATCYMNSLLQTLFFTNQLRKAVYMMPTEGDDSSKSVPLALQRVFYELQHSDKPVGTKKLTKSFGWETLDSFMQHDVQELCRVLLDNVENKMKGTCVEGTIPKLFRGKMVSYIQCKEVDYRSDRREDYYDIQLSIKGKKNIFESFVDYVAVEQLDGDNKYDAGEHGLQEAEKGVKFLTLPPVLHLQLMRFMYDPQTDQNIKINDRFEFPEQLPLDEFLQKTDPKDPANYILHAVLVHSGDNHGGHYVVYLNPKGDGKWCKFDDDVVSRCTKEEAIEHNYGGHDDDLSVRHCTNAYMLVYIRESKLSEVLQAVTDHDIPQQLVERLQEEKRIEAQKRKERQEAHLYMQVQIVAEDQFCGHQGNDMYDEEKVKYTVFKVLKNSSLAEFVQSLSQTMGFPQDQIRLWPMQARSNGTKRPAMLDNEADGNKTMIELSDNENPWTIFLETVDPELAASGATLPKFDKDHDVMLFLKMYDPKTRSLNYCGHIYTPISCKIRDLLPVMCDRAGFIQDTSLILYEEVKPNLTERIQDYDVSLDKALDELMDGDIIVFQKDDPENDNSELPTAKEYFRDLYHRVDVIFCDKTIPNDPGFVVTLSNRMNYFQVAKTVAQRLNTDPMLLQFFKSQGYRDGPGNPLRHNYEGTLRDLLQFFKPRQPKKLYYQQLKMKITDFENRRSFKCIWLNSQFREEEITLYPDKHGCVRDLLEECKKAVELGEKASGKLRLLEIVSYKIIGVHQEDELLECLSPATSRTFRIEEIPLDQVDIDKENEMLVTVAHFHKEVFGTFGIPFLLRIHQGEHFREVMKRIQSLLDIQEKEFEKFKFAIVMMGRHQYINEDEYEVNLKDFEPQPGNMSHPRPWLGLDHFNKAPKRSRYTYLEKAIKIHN
Chain of UniProt O08914 (whole entry, looked up): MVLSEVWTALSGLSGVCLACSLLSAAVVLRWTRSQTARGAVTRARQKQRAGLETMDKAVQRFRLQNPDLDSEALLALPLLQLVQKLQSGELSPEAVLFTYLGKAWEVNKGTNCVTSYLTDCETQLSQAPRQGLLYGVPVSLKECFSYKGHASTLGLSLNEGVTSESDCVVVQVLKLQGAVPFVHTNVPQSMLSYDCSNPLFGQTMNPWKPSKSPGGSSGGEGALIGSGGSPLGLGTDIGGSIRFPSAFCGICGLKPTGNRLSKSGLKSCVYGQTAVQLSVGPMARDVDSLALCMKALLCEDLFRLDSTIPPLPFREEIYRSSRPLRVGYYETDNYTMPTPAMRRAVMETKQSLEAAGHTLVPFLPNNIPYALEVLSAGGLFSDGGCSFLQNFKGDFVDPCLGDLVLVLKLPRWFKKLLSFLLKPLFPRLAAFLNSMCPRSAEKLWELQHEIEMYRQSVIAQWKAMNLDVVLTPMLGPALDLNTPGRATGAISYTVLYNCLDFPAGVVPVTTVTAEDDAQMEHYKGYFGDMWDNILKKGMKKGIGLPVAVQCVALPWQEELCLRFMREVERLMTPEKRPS
Chain of UniProt P31639 (whole entry, looked up): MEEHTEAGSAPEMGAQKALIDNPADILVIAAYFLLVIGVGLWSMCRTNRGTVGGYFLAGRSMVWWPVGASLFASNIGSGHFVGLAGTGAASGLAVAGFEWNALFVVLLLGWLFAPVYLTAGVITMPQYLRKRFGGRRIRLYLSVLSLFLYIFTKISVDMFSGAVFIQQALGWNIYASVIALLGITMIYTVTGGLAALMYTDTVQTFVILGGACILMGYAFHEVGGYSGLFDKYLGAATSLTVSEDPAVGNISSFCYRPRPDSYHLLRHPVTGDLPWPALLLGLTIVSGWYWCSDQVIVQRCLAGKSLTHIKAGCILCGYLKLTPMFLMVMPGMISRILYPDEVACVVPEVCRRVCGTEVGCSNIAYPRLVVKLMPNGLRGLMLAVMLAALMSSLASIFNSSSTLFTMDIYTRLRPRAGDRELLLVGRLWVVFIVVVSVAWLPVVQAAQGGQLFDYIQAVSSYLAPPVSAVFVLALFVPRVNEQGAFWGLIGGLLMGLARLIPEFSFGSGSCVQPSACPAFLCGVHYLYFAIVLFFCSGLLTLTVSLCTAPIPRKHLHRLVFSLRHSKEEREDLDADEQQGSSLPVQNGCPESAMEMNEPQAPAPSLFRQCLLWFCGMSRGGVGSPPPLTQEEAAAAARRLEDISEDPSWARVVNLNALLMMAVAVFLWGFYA
Chain of UniProt P00760 (whole entry, looked up): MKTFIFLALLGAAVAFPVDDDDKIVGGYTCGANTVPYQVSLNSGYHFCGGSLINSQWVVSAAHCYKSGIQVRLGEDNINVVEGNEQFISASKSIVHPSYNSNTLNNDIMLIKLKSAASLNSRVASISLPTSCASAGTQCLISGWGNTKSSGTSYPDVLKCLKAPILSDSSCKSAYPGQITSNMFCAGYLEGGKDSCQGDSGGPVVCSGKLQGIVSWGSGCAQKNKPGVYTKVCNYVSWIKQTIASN

Cc1c(COc2cc(OCc3cccc(C#N)c3)c(CNC(CO)CO)cc2Cl)cccc1-c1cccc(OCc2ccc(/C=C/C(=O)NO)cc2)c1 — inhibition (HDAC1; enzyme activity, inhibitor; 1 µM): 10.3%
C[Si]1(C[C@H](CN)CC(=O)O)CCCC1 — inhibition (Grin1; ligand displacement, radioligand; 70 µM): -6%
COCC(=O)N1CCc2cc(-c3csc(NC(=O)c4cc(OC)cc(OC)c4)n3)ccc21 — inhibition (Slc6a1 (Rattus norvegicus, UniProt P23978); ligand displacement, radioligand; 10 µM): 32%
CC(C)(C)c1ccccc1OS(=O)(=O)Oc1cccc(C(=O)NO)c1 — inhibition (HDAC5 (Homo sapiens, UniProt Q9UQL6); enzyme activity, inhibitor, fluorescence; 10 µM): 10%
Cc1cccc(O[C@H]2CCC[C@@H](C(C)CNCc3ccncc3)C2)c1 (relative stereo) — inhibition (EIF2AK3; enzyme activity, inhibitor; 1 µM): 8%
CC(C)C[C@H](NC(=O)[C@H](CC(C)C)NC(=O)CNC(=O)[C@H](C)NC(=O)[C@H](C)NC(=O)[C@H](CCCNC(=N)N)NC(=O)CNC(=O)CCCCNC(=O)CCCCNC(=O)CCCCNC(=O)[C@H](CCCCN)NC(=O)[C@H](Cc1ccc(O)cc1)NC(=O)[C@@H](N)Cc1cn(C)c2ccccc12)C(N)=O — inhibition (NPBWR1 (Homo sapiens, UniProt P48145); calcium signal, antagonist; 10 µM): 98%
COC1C(c2ccc(Cl)c(Cc3ccc(OC4CCOC4)cc3)c2)OC(CO)C(O)C1O (stereo not drawn) — inhibition (SLC5A2 (Homo sapiens, UniProt P31639); transporter uptake, inhibitor, radiometric; NIH3T3; 0.1 µM): 38.3%
CCCCCCCCCCCCNC(=S)NCCCC[C@H](NS(C)(=O)=O)C(=O)N[C@H](C)C(=O)N[C@@H](CCCNC(=N)N)C(N)=O — inhibition (SIRT6; enzyme activity, inhibitor; 10 µM): 14%
CC(C)(C)CNC(=O)C[C@H](NC(=O)CCc1ccccc1)C(=O)N[C@@H](Cc1cccnc1)C(=O)NCc1ccccc1Cl — inhibition (CTSL; enzyme activity, inhibitor; 100 µM): 28%
Cc1cc(Cl)cc(-c2ccnc3cc(CN4C(=O)C5C(C4=O)C5(C)C)sc23)c1C[C@@H]1CNCCO1 (stereo partly drawn) — inhibition (USP7 (Homo sapiens, UniProt Q93009, V517F); enzyme activity, inhibitor; 50 µM): 98.7% and 98.4%
CC(=O)NCCNCc1cc(Cl)c(OCc2cccc(-c3cccc(OCc4ccc(/C=C/C(=O)NO)cc4)c3)c2C)cc1OCc1cccc(C#N)c1 — inhibition (HDAC1; enzyme activity, inhibitor; 1 µM): 5.42%
CC[C@H](C)[C@@H]1NC(=O)[C@H](Cc2ccccc2C(F)(F)F)NC(=O)CCSCc2cccc(n2)CSCCCNC(=O)[C@H](CCCCCC(=O)O)NC1=O — inhibition (HDAC1; 30 µM): 30%
Cc1c(COc2cc(OCc3cccc(C#N)c3)c(CN3CCCC[C@H]3C(=O)O)cc2Cl)cccc1-c1cccc(OCc2ccc(/C=C/C(=O)NO)cc2)c1 — inhibition (HDAC1; enzyme activity, inhibitor; 1 µM): 29.9%
C=CC(=O)Nc1cccc(-c2cnc3[nH]cc(C(=O)NC(C)(C)C)c3n2)c1 — inhibition (EIF2AK3; enzyme activity, inhibitor; 0.1 µM): 5%
CN(C)C/C=C/C(=O)Nc1ccc2nc(NCCCCCN(C)C)nc(NCCCCCCN(C)C)c2c1 — inhibition (SUV39H1 (Homo sapiens, UniProt O43463); enzyme activity, inhibitor, radiometric; 10 µM): 48%
CC(C)Cn1c(SCC(=O)N2CCc3ccccc3C2)nc2cc(Cl)ccc2c1=O — inhibition (sigma receptor 2; radioligand binding; 10 µM): 9%
O=C1c2sc(-c3ccc(N4CCC(CO)CC4)nc3F)nc2CCN1c1cccnc1 — inhibition (Neuronal acetylcholine receptor; alpha4/beta2 (Homo sapiens, UniProt P17787+P43681); ligand displacement, radioligand; 1 µM): -11%
COc1cc(OC)c(F)c(/C=C/c2cnc3ccn(S(=O)(=O)c4cn(CCF)cn4)c3n2)c1F — inhibition (ERBB4 (Homo sapiens, UniProt Q15303); 10 nM): 5%
CC(C)NC(=O)[C@H](CCc1ccccc1)NC(=O)[C@H](CC(=O)NCC(C)(C)C)NC(=O)CCc1ccccc1 — inhibition (CTSL; enzyme activity, inhibitor; 100 µM): 0%
CC[C@@H](N[C@@H](C)CC(N)=O)c1ccc(Cl)c(Oc2ccccc2)c1F — inhibition (Serine protease 1 (PRSS1, Bos taurus, UniProt P00760); enzyme activity; concentration not given): inactive
Cn1ccc2cc(-n3c(=O)[nH]c4sc5c(c4c3=O)CCCC5)ccc21 — inhibition (Grin1; radioligand binding; 10 µM, NMDA receptor glycine site): 19%
CC(=O)NCCCC[C@H](NC(=O)[C@H](CCCNC(=N)N)NC(=O)[C@@H]1CCCN1C(=O)[C@H](C)NC(=O)[C@@H](N)CCCCN)C(=O)N[C@@H](CCC(N)=O)C(=O)N[C@@H](CC(C)C)C(=O)N[C@@H](C)C(=O)N[C@H](C(=O)N[C@@H](CCCCN)C(=O)N[C@@H](C)C(=O)N[C@@H](C)C(=O)N[C@@H](CCCNC(=N)N)C(=O)N[C@@H](CCCCN)C(=O)N[C@@H](CO)C(=O)N[C@@H](C)C(=O)N1CCC[C@H]1C(=O)N[C@@H](C)C(=O)O)[C@@H](C)O — inhibition (CTSL; enzyme activity, inhibitor; 25 µM, pH 6.0, 25 °C, added: Z-LR-Mca at 0.16 x Km): 68.7 ± 0.2%
C[Si](C)(C)C[C@@H](CN)CC(=O)O — inhibition (Grin1; ligand displacement, radioligand; 75 µM): 4%
CCCCCCCCCCCCCC(=S)NCCCC[C@H](NC(=O)OCc1ccccc1)C(=O)Nc1ccccc1 — inhibition (SIRT6; enzyme activity, inhibitor; 10 µM, added: myristoylated substrate): < 5%
CN(C(=O)n1ccnn1)c1ccccc1 — inhibition (Faah; serine hydrolase activity, inhibitor, competitive gel-based ABPP; mouse T-cell proteome; 1 µM, 30 min, 37 °C): > 95%
O=C(CN1CCO[C@@H](COc2cccc(Cl)c2)C1)N1CCc2ccccc21 — inhibition (HTR2C (Homo sapiens, UniProt P28335); radioligand binding; concentration not given, added: [3H]mesulergine): 48%
COc1ccc(C[C@H](NC(=O)Cc2cccc(Oc3ccccc3)c2)C(=O)N[C@@H](Cc2c[nH]c3ccccc23)C(=O)NCc2ccc(C)cc2)cc1OC — inhibition (CTSL; enzyme activity, inhibitor; 100 µM): 22%
O=C(O)Cc1ccccc1CC(=O)O — inhibition (Signal transducer and activator of transcription 5B, SH2 (STAT5B, Homo sapiens, UniProt P51692); ligand displacement, FP; 100 µM): -3%
O=C(NC1CCC1)[C@H](Cc1c[nH]c2ccccc12)NC(=O)[C@H](CCCCNC(=S)NCCc1noc(=O)[nH]1)NS(=O)(=O)c1cccc(F)c1 — inhibition (SIRT6; demyristoylase activity; 10 µM, added: myristoylated peptide substrate and NAD+ 500 µM): < 0%
C/C=C/C(=O)Nc1ccc2nc(NCCCCCN(C)C)nc(NCCCCCCN(C)C)c2c1 — inhibition (PRMT7 (Homo sapiens, UniProt Q9NVM4); enzyme activity, inhibitor, radiometric; 10 µM): 30%
CCn1cc(-c2cccc(C(F)(F)F)c2)c2sc(C(=N)NC3CCS(=O)(=O)CC3)cc2c1=O — inhibition (CREBBP (Homo sapiens, UniProt Q92793); 1 µM): -5.2%
CN(C)C(=O)n1ccnn1 — inhibition (Faah; serine hydrolase activity, inhibitor, competitive gel-based ABPP; mouse T-cell proteome; 1 µM, 30 min, 37 °C): > 95%
O=C(NO)c1cc(F)cc(OS(=O)(=O)Oc2ccc3ccccc3c2)c1 — inhibition (HDAC1; enzyme activity, inhibitor, fluorescence; 5 µM): 13%
CN(Cc1ccc(/C=C/C(=O)NO)cc1)CC12CC3CC(CC(C3)C1)C2 — inhibition (human M5 receptor; antagonist radioligand binding; 0.05 µM): -4%
N#Cc1c(Nc2ccccc2C(F)(F)F)s[nH]c1=O — inhibition (NAMPT (Homo sapiens, UniProt P43490); enzyme activity, inhibitor; 10 µM): 3%
COc1cc(-c2cn(C)c(=O)c3cnccc23)cc(OC)c1CN(C)C — inhibition (Peregrin (BRPF1, Homo sapiens, UniProt P55201); 1 µM): 0.7%
O=C1c2sc(-c3ccc(N4CCC(F)C4)nc3F)nc2CCN1c1cccnc1 (stereo not drawn) — inhibition (SSTR4 (Homo sapiens, UniProt P31391); ligand displacement, radioligand; 1 µM): -4%
CCn1cc(C(=O)O)c(=O)c2c(N)c(F)c(NC3CCCCC3)cc21 — inhibition (TESK2 (Homo sapiens, UniProt Q96S53); kinase activity; 0.1 µM, added: ATP at Km): 1.3%
Cc1c(COc2cc(OCc3cccc(C#N)c3)c(CN3CCCC[C@H]3C(=O)O)cc2Cl)cccc1-c1cccc(OCCCCCCC(=O)NO)c1 — inhibition (HDAC1; enzyme activity, inhibitor; 1 µM): 81.4%

Repeated from above:
COCC(=O)N1CCc2cc(-c3csc(NC(=O)c4cc(OC)cc(OC)c4)n3)ccc21 — inhibition (Slc6a1 (Rattus norvegicus, UniProt P23978); ligand displacement, radioligand; 10 µM): 32%
CC(C)(C)c1ccccc1OS(=O)(=O)Oc1cccc(C(=O)NO)c1 — inhibition (HDAC5 (Homo sapiens, UniProt Q9UQL6); enzyme activity, inhibitor, fluorescence; 10 µM): 10%
Cc1cccc(O[C@H]2CCC[C@@H](C(C)CNCc3ccncc3)C2)c1 (relative stereo) — inhibition (EIF2AK3; enzyme activity, inhibitor; 1 µM): 8%
CC(C)C[C@H](NC(=O)[C@H](CC(C)C)NC(=O)CNC(=O)[C@H](C)NC(=O)[C@H](C)NC(=O)[C@H](CCCNC(=N)N)NC(=O)CNC(=O)CCCCNC(=O)CCCCNC(=O)CCCCNC(=O)[C@H](CCCCN)NC(=O)[C@H](Cc1ccc(O)cc1)NC(=O)[C@@H](N)Cc1cn(C)c2ccccc12)C(N)=O — inhibition (NPBWR1 (Homo sapiens, UniProt P48145); calcium signal, antagonist; 10 µM): 98%
COC1C(c2ccc(Cl)c(Cc3ccc(OC4CCOC4)cc3)c2)OC(CO)C(O)C1O (stereo not drawn) — inhibition (SLC5A2 (Homo sapiens, UniProt P31639); transporter uptake, inhibitor, radiometric; NIH3T3; 0.1 µM): 38.3%
CCCCCCCCCCCCNC(=S)NCCCC[C@H](NS(C)(=O)=O)C(=O)N[C@H](C)C(=O)N[C@@H](CCCNC(=N)N)C(N)=O — inhibition (SIRT6; enzyme activity, inhibitor; 10 µM): 14%
